Measurements collected from several papers.
A part holds a random share of what one study measured.

Set 1
Target: Prothrombin, mature alpha-thrombin (F2, Homo sapiens, UniProt P00734)
Technique: aptamer microarray, sandwich
Form: DNA with 2'F-ANA
Matrix: in vitro
Concentration: 200 nM
Notes: whole 15-mer aptamer, many near background
With: Cy3 exosite-II aptamer, 400 nM
Direction: higher = stronger binding
Strand: GGTTGGTGTGGTTGG
For `2'F-ANA at 4 5 6 7 8 10 13 14 15`, “mean fluorescence intensity” read 48 a.u.
For `2'F-ANA at 1 5 8 9 13 15`, “mean fluorescence intensity” read 46.8 a.u.
`2'F-ANA at 1 2 8 10 12 15`: “mean fluorescence intensity” 71.3 a.u.
Under “mean fluorescence intensity”, `2'F-ANA at 2 3 4 6 7 11 15` is recorded as 493 a.u.
For `2'F-ANA at 2 5 6 7 9 10 12 14`, “mean fluorescence intensity” read 47.5 a.u.
`2'F-ANA at 1 5 7 10 11 12 13 15` — result for “mean fluorescence intensity”: 47 a.u.

Set 2
Target: Histone acetyltransferase KAT6A, winged helix 2, GST fusion (KAT6A, Homo sapiens, UniProt Q92794, residues 85-181)
Technique: protein binding microarray
Form: double-stranded DNA, one strand shown
Matrix: in vitro
Concentration: not given
Notes: 8-mer, flanks averaged, mean of 2 arrays, mostly near background
Relative to: not given
Direction: higher = stronger binding
Target sequence (chain): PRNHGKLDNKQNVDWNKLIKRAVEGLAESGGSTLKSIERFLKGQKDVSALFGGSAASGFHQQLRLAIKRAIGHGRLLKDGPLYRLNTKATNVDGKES
The E-score of `GTTTAGGA` is reported as -0.167.
The E-score of `AAATAATG` is reported as 0.0462.
With `TACCGCGA` the E-score was 0.17.
With `CGACCATC` the E-score was -0.0985.
For `CGTCTTTC`, the E-score was -0.0707.
`GCGAGCCC` gave an E-score of 0.0325.
With `AGTCACAG` the E-score was 0.0307.
`CAAACTGC` gave an E-score of 0.0394.

Set 3
Target: Interferon regulatory factor 7, full length, phosphomimetic (IRF7, Homo sapiens, UniProt Q92985, residues 1-503, S471D/S472D/S475D/S476D/S477D/S483D/S484D/S487D)
UniProt Q92985, sequence (whole entry, unmodified, looked up): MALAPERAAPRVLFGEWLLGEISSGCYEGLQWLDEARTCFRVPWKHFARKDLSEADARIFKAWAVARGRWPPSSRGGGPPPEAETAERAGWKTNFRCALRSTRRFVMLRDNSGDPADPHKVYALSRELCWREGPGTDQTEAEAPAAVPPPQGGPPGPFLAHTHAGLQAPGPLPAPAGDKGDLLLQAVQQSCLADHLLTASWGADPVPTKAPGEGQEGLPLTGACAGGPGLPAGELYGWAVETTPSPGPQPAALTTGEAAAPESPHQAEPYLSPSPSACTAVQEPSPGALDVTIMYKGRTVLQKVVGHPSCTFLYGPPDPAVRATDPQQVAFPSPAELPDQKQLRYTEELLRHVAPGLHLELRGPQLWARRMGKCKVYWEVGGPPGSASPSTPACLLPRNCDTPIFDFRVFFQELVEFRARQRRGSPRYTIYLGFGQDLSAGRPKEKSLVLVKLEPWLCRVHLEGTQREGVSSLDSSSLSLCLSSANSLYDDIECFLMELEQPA
Technique: protein-binding microarray
Form: double-stranded DNA, one strand shown
Matrix: in vitro
Concentration: 2200 nM top
Notes: 60-bp whole probe
With: salmon DNA 0.4 mg/ml
Relative to: random background probes
Direction: higher = stronger binding
All sequences stand within: GCCTAGCAC … GTCTTGATTCGCTTGACGCTGCTG
`TCAAGAATGGGGTTTGCAACTGTGCTA` — result for “fitted relative affinity”: -0.243 z-score.
`TTAGGGATCCTTTTCCTTTAGTGCTAG`: “fitted relative affinity” 0.737 z-score.
`TCATTTCTTTCAAATGAAACTGTGCTA` — result for “fitted relative affinity”: 0.954 z-score.
`CCAATTCTTTTTATGCTTTCGTGCTAG` — result for “fitted relative affinity”: 2.3 z-score.
`TCATTATTAAAACTTCATACTGTGCTA`: “fitted relative affinity” 0.016 z-score.
For `GACGGACTGGTACTGGGGACGTGCTAG`, “fitted relative affinity” read -0.713 z-score.
`TTCGGACTGCTTTTCCTTTAGTGCTAG` — result for “fitted relative affinity”: 1.91 z-score.

Further values, each from its own experiment
With `PhoQ, residues 284 288 289 292 302 303 TTSMTC` the fold induction was 9.37 (PhoP, residues 12 14 15 18 19 QYFSL (Escherichia coli, UniProt P23836); Sort-seq, measured: YFP reporter; E. coli; PhoQ-PhoP variant library, with: 10 µM Mg2+; relative to: high Mg2+ state, higher = stronger signaling).
